# Assay results of several laboratories.
# Every numbered part comes from another study and shows a few of its results, in no order. Substitutions count along the parent as printed.

# Series 1
# Target: TAR DNA-binding protein 43, full length, His tag (TARDBP, Homo sapiens, UniProt Q13148, residues 1-414)
# Technique: RNA Bind-n-Seq
# Form: RNA
# Medium: in vitro
# Tested at: 20 nM
# Notes: 6-mer, flanks averaged, single round
# With: 150 mM LiCl
# Relative to: input library
# Direction: higher = stronger binding
Sequence,6-mer enrichment (R)
ACAAAU,0.883
UUUAUG,1.24
GGCACG,0.992
CUAACA,0.836
UCCUCC,0.969
AAAGGG,1.02
GUAAGG,1.11
GGCUAA,0.915

# Series 2
# Target: BATF, bZIP domain (human)
# Technique: DHFR protein complementation
# Medium: yeast
# Notes: single substitutions, most at no-binding floor
# Relative to: wild-type JUN-FOS pair
# Direction: higher = stronger binding
# Parent: JUN, bZIP domain (human); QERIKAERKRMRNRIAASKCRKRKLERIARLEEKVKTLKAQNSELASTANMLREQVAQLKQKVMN; partner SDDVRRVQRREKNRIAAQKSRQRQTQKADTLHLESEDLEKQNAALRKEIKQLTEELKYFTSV
Substitution,binding fitness [natural log]
I28Q,0.0346
I28N,-0.0552
T37I,0.0286
A49M,-0.209
L45H,-1.02
E54D,-0.0692
I28T,-0.048
A29M,-0.301

# Series 3
# Target: Krueppel-like factor 3, full length (KLF3, Homo sapiens, UniProt P57682, residues 1-345)
# Chain of UniProt P57682 (whole entry, looked up): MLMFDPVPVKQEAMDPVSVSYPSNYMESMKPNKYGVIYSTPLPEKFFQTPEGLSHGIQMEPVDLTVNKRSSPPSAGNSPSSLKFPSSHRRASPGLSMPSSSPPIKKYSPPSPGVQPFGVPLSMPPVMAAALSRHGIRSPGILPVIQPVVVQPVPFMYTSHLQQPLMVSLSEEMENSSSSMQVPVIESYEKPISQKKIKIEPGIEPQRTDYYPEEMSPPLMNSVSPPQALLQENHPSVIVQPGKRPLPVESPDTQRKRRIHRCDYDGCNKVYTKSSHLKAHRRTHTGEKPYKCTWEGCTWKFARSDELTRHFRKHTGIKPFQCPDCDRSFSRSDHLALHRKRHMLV
# Technique: protein-binding microarray
# Form: hairpin DNA
# Medium: in vitro
# Tested at: not given
# Notes: whole hairpin DNA, median over replicate spots
# Relative to: not given
# Direction: higher = stronger binding
Sequence,median fluorescence [a.u.]
GAGGCCGCCCGCGCCCAGCCTCCTGGCTGGGCGCGGGCGGCCTCACACTC (5mC at 8),8780
GAGGCCGACCGCGCGCAGCCTCCTGGCTGCGCGCGGTCGGCCTCACACTC (5mC at 30),9210
GAGGCCGACCGCGCCCAGCCTCCTGGCTGGGCGCGGTCGGCCTCACACTC (5mC at 12 32),8620
GAGGCCGACCACACCCAGCCTCCTGGCTGGGTGTGGTCGGCCTCACACTC,8610
GAGGCCGACCGCGCCCAGCCTCCTGGCTGGGCGCGGTCGGCCTCACACTC (5mC at 10 12 32),8530
GAGGCCGCGCACGCCCAGCCTCCTGGCTGGGCGTGCGCGGCCTCACACTC (5mC at 36),10100
GAGGCCGACCGCGCCCAGCCTCCTGGCTGGGCGCGGTCGGCCTCACACTC (5mC at 9),8550
GAGGCCCGCCACGCCCAGCCTCCTGGCTGGGCGTGGCGGGCCTCACACTC (5mC at 37),9290

# Other studies, line by line
Molecule,target,test,test system,conditions,quantity,result
RLYPFGSYY,"HLA class I histocompatibility antigen, C alpha chain, allele C*04:01 (Homo sapiens, UniProt P10321)",peptide-MHC binding,peptide,concentration not given,binding,inactive

# Excerpt of the above (series 1):
Sequence,6-mer enrichment (R)
AAAGGG,1.02
GUAAGG,1.11
GGCACG,0.992
GGCUAA,0.915
